Assay results pooled from the literature.
Protocols differ between the studies behind these lines. Values joined by “and” are separate records of one study, mostly repeats; a detail may differ. Numbers after ± are the reported error.
ABCC3: ATP-binding cassette sub-family C member 3 (ABCC3, Homo sapiens, UniProt O15438)
UniProt O15438, sequence (whole entry, looked up): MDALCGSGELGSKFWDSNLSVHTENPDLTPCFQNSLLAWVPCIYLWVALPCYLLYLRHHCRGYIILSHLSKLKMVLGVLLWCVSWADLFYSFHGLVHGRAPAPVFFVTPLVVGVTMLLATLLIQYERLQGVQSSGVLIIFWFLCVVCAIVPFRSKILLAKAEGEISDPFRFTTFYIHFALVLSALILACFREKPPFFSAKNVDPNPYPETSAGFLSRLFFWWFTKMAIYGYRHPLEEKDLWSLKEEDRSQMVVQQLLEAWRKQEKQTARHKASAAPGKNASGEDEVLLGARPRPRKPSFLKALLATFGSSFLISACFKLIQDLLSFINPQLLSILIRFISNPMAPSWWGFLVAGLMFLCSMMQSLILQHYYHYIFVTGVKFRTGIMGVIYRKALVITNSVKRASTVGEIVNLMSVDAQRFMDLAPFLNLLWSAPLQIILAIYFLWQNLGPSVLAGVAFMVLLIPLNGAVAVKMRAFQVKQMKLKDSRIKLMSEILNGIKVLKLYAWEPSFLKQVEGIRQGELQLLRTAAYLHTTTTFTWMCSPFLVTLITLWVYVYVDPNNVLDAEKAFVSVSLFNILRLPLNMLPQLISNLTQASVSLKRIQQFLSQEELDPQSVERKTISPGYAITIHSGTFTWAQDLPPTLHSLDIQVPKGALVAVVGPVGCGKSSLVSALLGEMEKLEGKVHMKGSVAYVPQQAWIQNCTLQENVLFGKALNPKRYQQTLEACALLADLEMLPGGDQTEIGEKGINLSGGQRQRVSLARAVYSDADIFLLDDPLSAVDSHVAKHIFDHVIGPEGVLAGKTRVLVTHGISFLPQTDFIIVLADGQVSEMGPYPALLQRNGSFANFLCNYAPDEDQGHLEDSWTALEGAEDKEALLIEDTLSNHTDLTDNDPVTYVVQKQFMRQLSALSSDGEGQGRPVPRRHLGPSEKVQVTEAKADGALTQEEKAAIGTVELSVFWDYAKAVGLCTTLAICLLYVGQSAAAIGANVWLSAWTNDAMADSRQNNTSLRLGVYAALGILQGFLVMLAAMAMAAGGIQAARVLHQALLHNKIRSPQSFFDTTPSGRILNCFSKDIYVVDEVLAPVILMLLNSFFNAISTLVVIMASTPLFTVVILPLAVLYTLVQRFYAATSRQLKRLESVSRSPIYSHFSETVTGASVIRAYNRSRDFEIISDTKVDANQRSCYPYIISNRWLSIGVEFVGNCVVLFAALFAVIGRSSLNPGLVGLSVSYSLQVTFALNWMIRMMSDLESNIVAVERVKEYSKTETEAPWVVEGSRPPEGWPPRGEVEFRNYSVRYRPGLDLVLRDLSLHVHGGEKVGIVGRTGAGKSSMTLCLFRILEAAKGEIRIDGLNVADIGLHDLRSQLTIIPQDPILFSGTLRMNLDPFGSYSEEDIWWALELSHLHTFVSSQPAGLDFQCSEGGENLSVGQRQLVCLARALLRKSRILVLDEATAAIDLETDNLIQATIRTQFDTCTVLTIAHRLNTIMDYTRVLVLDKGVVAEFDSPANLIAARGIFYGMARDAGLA
KCNH2: Voltage-gated inwardly rectifying potassium channel KCNH2 (KCNH2, Homo sapiens, UniProt Q12809)
UniProt P20813, sequence (whole entry, looked up): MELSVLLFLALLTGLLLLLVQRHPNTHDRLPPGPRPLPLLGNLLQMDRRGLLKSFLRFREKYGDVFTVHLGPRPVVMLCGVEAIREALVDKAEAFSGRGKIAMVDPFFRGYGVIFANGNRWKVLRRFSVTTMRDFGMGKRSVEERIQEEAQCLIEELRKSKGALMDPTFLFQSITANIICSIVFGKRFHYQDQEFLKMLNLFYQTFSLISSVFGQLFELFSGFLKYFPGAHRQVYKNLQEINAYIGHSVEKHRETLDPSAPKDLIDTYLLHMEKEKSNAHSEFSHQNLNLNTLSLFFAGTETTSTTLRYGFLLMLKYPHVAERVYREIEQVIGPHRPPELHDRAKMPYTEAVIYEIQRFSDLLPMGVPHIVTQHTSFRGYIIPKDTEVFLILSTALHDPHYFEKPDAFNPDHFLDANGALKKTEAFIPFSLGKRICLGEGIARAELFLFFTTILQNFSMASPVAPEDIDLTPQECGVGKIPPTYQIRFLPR
UniProt Q12809, sequence (whole entry, looked up): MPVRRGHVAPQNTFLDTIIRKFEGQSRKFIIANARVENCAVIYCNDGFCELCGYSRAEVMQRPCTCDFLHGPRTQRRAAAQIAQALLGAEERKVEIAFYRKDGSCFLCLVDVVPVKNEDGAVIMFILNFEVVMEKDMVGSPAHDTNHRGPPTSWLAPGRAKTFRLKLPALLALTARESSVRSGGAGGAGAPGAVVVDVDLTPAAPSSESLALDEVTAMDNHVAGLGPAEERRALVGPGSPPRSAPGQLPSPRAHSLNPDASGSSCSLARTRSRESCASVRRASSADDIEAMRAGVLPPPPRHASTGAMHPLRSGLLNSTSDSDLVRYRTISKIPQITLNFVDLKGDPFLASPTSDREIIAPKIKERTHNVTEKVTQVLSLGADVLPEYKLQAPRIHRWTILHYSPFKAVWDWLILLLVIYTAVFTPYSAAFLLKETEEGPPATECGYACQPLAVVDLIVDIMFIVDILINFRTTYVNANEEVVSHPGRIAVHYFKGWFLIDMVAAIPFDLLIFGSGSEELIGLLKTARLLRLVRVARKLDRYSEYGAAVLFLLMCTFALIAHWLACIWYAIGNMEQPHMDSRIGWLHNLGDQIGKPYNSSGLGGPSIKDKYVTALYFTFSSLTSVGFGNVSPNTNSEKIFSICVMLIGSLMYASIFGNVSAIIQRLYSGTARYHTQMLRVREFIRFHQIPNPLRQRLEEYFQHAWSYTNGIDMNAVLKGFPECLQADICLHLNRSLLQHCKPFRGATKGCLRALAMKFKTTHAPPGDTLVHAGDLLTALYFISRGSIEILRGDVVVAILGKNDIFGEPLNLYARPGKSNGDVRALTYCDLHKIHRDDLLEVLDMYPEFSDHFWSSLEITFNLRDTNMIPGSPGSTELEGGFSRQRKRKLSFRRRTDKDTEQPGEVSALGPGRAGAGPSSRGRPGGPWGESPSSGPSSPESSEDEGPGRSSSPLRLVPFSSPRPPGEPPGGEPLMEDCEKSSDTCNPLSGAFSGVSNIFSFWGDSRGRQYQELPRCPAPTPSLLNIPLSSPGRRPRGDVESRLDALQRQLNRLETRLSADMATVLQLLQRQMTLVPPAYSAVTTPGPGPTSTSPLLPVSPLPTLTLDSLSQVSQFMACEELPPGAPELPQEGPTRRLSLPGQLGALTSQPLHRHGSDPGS

For `O=C(c1ccc(OCCN2CCCCC2)cc1)c1c(-c2ccc(O[C@@H]3O[C@H](C(=O)O)[C@@H](O)[C@H](O)[C@H]3O)cc2)sc2cc(O)ccc12`, the intrinsic clearance was 155 µL/min/mg protein (ABCC3; substrate; Sf9 membrane vesicles; pH 7).
`COc1cc2nc(c1)CNCc1cc(OC)cc(n1)CNC2.[Cu+2]` gave a half-wave potential of -803 mV (Cu(II)/Cu(I) redox couple; cyclic voltammetry; DMF; added: TBAP; reference: Fc/Fc+).
With `Cc1cc(/C=C/C#N)cc(C)c1Oc1nc(NC2CCN(Cc3ccc(S(C)(=O)=O)cc3)CC2)nc2ncccc12` the inhibition was 40.1% (KCNH2; hERG current, manual patch clamp; CHO stably expressing hERG; 1 µM).
The inhibition of `O=C1NC2(CC2)COc2ncc(F)cc2[C@H]2COCCN2c2ccn3ncc1c3n2` is reported as 18.8 ± 1.25% (KCNH2; potassium current, whole-cell patch clamp; CHO cells expressing hERG; 4.44 µM).
Under “log2 fold change”, `COC1CN([C@H]2CC[C@H]([C@@]3(C)Oc4c(Cl)cc(C(=O)NCc5c(SC)cc(C)[nH]c5=O)c(C)c4O3)CC2)C1` is recorded as 1.17 (RNA-seq, item: LETM2; human, whole blood; dose not given, 24 h; reference: pretreatment baseline).
With `O=C(Nc1cnccc1-c1ccc([18F])nc1)c1ccnc(NC(=O)C2CC2)c1` the SUV was 0.31 ± 0.14 (GSK-3β imaging tracer; FVB/NJ mice, both sexes, brain; intravenous, 2 min, early frames, no P-gp inhibitor).
With `CNC(=O)C1CCCN(C(=O)C2CC3CCC2N3C(=O)[C@@H]2C[C@@H](O)CN2C(=O)NCc2cccc(Cl)c2F)C1` (mixture of isomers) the remaining activity was 94.4% and 99% and 102% (Cytochrome P450 2B6 (CYP2B6, Homo sapiens, UniProt P20813); preincubation with NADPH; human; 16.7 µM; reference: negative control).
`Clc1cc2nc(c1)CNCc1cc(Cl)cc(n1)CNC2.[Cu+2]`: “cathodic peak potential” -703 mV (Cu(II)/Cu(I) redox couple; cyclic voltammetry; DMF; added: TBAP; reference: Fc/Fc+).
The inhibition of `O=C(c1ccc(OCCN2CCCCC2)cc1)c1c(-c2ccc(O)cc2)sc2cc(O[C@@H]3O[C@H](C(=O)O)[C@@H](O)[C@H](O)[C@H]3O)ccc12` is reported as > 75% (ABCC3; transporter uptake, inhibitor; Sf9; 10 µM, pH 7, cell membranes).
With `O=C(Nc1cnccc1-c1ccc([18F])cc1)c1ccnc(NC(=O)C2CC2)c1` the SUV was 1.22 ± 0.45 (GSK-3β imaging tracer; FVB/NJ mice, both sexes, brain; intravenous, 1 min, early frames, no P-gp inhibitor).
With `[Cu+2].c1cc2nc(c1)CNCc1cccc(n1)CNC2` the half-wave potential was -740 mV (Cu(II)/Cu(I) redox couple; cyclic voltammetry; DMF; added: TBAP; reference: Fc/Fc+).
